Published values of several laboratories.
Every numbered part comes from another study and shows a few of its results, in no order. Values joined by “and” are separate records of one study, mostly repeats; a detail may differ.
Sequence of UniProt P43250 (whole entry, looked up): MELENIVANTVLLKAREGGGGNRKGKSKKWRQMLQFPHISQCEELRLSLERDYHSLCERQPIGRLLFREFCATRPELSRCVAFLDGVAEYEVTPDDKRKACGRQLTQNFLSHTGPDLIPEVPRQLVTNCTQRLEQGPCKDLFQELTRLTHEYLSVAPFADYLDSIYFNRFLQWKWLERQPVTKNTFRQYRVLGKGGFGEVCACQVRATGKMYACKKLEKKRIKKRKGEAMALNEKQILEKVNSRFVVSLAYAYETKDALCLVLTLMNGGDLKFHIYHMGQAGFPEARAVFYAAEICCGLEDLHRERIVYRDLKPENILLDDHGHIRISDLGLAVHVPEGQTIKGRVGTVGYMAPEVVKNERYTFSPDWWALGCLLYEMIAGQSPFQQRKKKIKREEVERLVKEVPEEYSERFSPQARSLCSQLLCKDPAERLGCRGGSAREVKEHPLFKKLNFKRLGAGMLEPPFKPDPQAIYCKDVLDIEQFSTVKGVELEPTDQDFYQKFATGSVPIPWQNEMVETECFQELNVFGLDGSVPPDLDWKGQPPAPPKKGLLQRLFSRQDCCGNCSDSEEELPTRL
Sequence of UniProt P16234 (whole entry, looked up): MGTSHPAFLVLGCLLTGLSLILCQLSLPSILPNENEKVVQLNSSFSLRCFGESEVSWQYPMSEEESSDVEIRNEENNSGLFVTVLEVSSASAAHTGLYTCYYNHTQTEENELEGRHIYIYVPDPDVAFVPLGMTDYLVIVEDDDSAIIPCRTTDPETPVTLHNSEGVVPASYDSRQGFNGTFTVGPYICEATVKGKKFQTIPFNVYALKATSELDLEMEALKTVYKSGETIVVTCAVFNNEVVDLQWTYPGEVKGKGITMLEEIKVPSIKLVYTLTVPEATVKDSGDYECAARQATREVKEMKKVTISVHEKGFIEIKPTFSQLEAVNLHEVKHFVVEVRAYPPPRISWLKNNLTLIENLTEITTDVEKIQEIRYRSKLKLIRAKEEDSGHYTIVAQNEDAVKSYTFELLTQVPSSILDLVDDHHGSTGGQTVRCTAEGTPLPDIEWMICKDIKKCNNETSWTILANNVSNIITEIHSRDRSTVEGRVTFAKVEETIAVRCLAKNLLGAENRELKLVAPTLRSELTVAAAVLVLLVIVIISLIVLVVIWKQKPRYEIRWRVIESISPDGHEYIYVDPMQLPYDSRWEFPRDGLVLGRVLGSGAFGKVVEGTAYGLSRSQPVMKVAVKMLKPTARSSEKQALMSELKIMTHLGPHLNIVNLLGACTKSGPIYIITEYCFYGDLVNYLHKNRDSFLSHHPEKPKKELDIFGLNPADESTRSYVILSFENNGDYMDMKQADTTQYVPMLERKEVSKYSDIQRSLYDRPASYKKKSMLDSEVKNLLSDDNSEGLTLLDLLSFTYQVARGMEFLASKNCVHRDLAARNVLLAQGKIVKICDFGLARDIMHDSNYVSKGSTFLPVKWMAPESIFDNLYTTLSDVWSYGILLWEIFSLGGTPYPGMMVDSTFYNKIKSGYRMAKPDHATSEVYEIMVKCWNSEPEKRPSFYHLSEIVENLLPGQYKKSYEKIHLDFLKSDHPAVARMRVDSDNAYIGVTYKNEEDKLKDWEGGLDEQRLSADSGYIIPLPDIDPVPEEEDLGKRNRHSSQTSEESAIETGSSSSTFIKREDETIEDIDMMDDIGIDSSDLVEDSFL
Sequence of UniProt P42336 (whole entry, unmodified, looked up): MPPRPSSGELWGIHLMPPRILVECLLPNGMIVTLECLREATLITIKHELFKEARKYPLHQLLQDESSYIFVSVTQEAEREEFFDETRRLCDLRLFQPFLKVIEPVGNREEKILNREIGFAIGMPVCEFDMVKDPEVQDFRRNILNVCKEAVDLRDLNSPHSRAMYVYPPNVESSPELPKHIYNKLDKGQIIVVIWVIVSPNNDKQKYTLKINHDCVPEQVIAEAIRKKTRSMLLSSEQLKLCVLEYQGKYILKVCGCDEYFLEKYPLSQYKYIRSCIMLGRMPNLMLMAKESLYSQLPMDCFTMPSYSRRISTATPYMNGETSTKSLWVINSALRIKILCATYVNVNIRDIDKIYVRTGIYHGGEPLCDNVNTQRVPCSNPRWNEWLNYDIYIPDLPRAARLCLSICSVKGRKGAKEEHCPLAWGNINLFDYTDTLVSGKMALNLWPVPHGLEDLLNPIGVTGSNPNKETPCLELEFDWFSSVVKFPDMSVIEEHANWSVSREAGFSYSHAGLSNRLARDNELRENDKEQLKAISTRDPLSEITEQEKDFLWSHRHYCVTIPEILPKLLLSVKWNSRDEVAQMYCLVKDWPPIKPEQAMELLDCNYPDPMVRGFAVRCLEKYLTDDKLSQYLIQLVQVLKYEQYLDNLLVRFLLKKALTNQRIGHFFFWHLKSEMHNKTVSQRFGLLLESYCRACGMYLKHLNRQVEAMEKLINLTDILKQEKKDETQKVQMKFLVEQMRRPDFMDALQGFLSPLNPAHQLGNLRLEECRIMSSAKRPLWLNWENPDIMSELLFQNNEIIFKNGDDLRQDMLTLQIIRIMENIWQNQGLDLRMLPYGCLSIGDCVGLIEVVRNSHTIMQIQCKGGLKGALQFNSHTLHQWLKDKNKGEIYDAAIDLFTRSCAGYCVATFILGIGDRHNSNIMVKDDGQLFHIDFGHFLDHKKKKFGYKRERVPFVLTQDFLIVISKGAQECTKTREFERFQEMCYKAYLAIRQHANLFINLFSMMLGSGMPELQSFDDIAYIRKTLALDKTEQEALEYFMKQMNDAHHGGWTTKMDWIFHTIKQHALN
Sequence of UniProt Q96NX5 (whole entry, looked up): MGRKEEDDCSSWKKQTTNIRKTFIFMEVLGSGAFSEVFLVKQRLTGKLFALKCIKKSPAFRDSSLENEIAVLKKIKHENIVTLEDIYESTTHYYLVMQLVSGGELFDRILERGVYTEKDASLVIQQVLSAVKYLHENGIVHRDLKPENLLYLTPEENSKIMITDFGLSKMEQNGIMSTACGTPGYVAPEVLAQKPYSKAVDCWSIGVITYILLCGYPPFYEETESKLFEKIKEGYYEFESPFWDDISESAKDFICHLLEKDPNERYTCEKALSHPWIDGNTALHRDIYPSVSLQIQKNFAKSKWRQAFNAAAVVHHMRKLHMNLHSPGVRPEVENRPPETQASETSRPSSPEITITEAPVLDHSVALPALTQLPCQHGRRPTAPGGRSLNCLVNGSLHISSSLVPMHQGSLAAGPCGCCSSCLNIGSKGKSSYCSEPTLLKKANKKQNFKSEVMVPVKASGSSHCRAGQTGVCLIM
Sequence of UniProt P30542 (whole entry, looked up): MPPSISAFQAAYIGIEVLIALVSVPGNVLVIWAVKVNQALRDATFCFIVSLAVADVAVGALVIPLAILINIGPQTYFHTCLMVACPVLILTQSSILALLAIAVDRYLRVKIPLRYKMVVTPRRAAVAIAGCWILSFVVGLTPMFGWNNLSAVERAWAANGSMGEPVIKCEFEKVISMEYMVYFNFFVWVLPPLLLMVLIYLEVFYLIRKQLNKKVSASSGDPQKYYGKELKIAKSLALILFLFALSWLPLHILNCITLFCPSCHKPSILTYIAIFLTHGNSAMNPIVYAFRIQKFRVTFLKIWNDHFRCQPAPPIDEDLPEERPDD
Sequence of UniProt P49674 (whole entry, looked up): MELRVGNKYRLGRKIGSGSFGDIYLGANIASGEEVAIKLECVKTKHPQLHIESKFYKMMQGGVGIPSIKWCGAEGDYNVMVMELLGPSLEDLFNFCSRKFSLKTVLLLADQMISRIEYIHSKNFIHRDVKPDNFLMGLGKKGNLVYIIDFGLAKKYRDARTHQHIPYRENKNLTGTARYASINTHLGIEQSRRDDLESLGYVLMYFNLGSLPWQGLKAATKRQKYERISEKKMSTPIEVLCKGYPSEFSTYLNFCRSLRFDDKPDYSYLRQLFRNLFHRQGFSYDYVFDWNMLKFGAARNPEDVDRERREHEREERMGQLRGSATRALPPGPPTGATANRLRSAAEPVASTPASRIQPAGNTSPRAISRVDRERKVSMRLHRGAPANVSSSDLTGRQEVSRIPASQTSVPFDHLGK
Sequence of UniProt Q15077 (whole entry, looked up): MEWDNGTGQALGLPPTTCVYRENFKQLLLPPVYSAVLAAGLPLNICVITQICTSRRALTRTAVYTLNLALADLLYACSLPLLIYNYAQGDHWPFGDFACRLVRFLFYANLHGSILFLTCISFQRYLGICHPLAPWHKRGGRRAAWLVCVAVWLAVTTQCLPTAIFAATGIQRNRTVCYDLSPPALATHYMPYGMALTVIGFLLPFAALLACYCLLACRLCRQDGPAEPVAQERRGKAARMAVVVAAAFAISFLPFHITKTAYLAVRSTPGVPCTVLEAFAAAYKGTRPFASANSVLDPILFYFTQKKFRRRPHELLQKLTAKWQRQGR

Sample 1
SMILES: CC(C)S(=O)(=O)c1ccc2nccc(Nc3ccc4sc(C5CCCC5)nc4c3)c2c1.Cl
Read-out: kinase activity
Mode: inhibitor
Tested at: 1 µM
Quantity: remaining activity
Homeodomain-interacting protein kinase 2 (HIPK2, Homo sapiens, UniProt Q9H2X6): 98%
Inhibitor of nuclear factor kappa-B kinase subunit alpha (CHUK, Homo sapiens, UniProt O15111): 119%
Glycogen synthase kinase-3 alpha (GSK3A, Homo sapiens, UniProt P49840): 81%
Tyrosine-protein kinase Yes (YES1, Homo sapiens, UniProt P07947): 92%
Mitogen-activated protein kinase kinase kinase 5 (MAP3K5, Homo sapiens, UniProt Q99683): 106%
MAP kinase-interacting serine/threonine-protein kinase 2 (MKNK2, Homo sapiens, UniProt Q9HBH9): 104%
G protein-coupled receptor kinase 6 (GRK6, Homo sapiens, UniProt P43250): 100% and 121%
Dual specificity tyrosine-phosphorylation-regulated kinase 1B (DYRK1B, Homo sapiens, UniProt Q9Y463): 85%
Fibroblast growth factor receptor 1 (FGFR1, Homo sapiens, UniProt P11362): 109%
Serine/threonine-protein kinase TBK1 (TBK1, Homo sapiens, UniProt Q9UHD2): 97%
Muscle, skeletal receptor tyrosine-protein kinase (MUSK, Homo sapiens, UniProt O15146): 103%
Tyrosine-protein kinase Fgr (FGR, Homo sapiens, UniProt P09769): 90%
Activin receptor type-1B (ACVR1B, Homo sapiens, UniProt P36896): 91%
Mitogen-activated protein kinase kinase kinase kinase 2 (MAP4K2, Homo sapiens, UniProt Q12851): 90%
Ribosomal protein S6 kinase alpha-1 (RPS6KA1, Homo sapiens, UniProt Q15418): 95%
Casein kinase I isoform epsilon (CSNK1E, Homo sapiens, UniProt P49674): 97%
Angiopoietin-1 receptor (TEK, Homo sapiens, UniProt Q02763): 78%
TGF-beta receptor type-2 (TGFBR2, Homo sapiens, UniProt P37173): 114%
Platelet-derived growth factor receptor alpha (PDGFRA, Homo sapiens, UniProt P16234): 107%

Sample 2
Compound: COc1cc(Nc2c(C#N)cnc3cc(OCCCN4CCN(C)CC4)c(OC)cc23)c(Cl)cc1Cl
Read-out: enzyme activity
Mode: inhibitor
Tested at: 0.5 µM
Reference: control
Quantity: remaining activity
G protein-coupled receptor kinase 5 (GRK5, Homo sapiens, UniProt P34947): 109%
Aurora kinase A (AURKA, Homo sapiens, UniProt O14965): 86%
Protein-tyrosine kinase 2-beta (PTK2B, Homo sapiens, UniProt Q14289): 32.6%
Dual specificity tyrosine-phosphorylation-regulated kinase 4 (DYRK4, Homo sapiens, UniProt Q9NR20): 97.9%
Homeodomain-interacting protein kinase 3 (HIPK3, Homo sapiens, UniProt Q9H422): 93.5%
Proto-oncogene tyrosine-protein kinase receptor Ret (RET, Homo sapiens, UniProt P07949): 18.9%
Serine/threonine-protein kinase N2 (PKN2, Homo sapiens, UniProt Q16513): 105%
Serine/threonine-protein kinase D1 (PRKD1, Homo sapiens, UniProt Q15139): 43.7%
Cyclin-dependent kinase 2, with cyclin A (CDK2, Homo sapiens, UniProt P24941): 91.1%
Mitogen-activated protein kinase kinase kinase 2 (MAP3K2, Homo sapiens, UniProt Q9Y2U5): 23.5%
Rho-associated protein kinase 2 (ROCK2, Homo sapiens, UniProt O75116): 85%
Proto-oncogene tyrosine-protein kinase ROS (ROS1, Homo sapiens, UniProt P08922): 95.4%
Mitogen-activated protein kinase kinase kinase 8 (MAP3K8, Homo sapiens, UniProt P41279): 101%
Casein kinase II subunit alpha' (CSNK2A2, Homo sapiens, UniProt P19784): 108%
Calcium/calmodulin-dependent protein kinase type 1G (CAMK1G, Homo sapiens, UniProt Q96NX5): 82.7%
Serine/threonine-protein kinase BRSK1 (BRSK1, Homo sapiens, UniProt Q8TDC3): 97.5%

Sample 3
SMILES: N=C(N)NC(=O)c1cnn(-c2cccc3ncccc23)c1C1CC1
Read-out: β-arrestin recruitment
Mode: agonist
Technique: PRESTO-Tango
Tested at: 10 µM
Reference: untreated
Quantity: fold over basal
Secretin receptor (SCTR, Homo sapiens, UniProt P47872): 1.31
C-C chemokine receptor type 8 (CCR8, Homo sapiens, UniProt P51685): 1
Prostaglandin E2 receptor EP4 subtype (PTGER4, Homo sapiens, UniProt P35408): 1
P2Y purinoceptor 6 (P2RY6, Homo sapiens, UniProt Q15077): 1.47
Prostaglandin E2 receptor EP1 subtype (PTGER1, Homo sapiens, UniProt P34995): 1
Prolactin-releasing peptide receptor (PRLHR, Homo sapiens, UniProt P49683): 0.87
Endothelin receptor type B (EDNRB, Homo sapiens, UniProt P24530): 0.92
G-protein coupled receptor 55 (GPR55, Homo sapiens, UniProt Q9Y2T6): 1.06
G-protein coupled receptor 52 (GPR52, Homo sapiens, UniProt Q9Y2T5): 1.21
Retinoic acid-induced protein 3 (GPRC5A, Homo sapiens, UniProt Q8NFJ5): 1.08
GPR32 (Homo sapiens, UniProt O75388): 1.04
Adenosine receptor A1 (ADORA1, Homo sapiens, UniProt P30542): 1.03
Probable G-protein coupled receptor 148 (GPR148, Homo sapiens, UniProt Q8TDV2): 1.77
Sphingosine 1-phosphate receptor 5 (S1PR5, Homo sapiens, UniProt Q9H228): 1.01
Adhesion G protein-coupled receptor D2 (ADGRD2, Homo sapiens, UniProt Q7Z7M1): 1.02
Melanin-concentrating hormone receptor 2 (MCHR2, Homo sapiens, UniProt Q969V1): 1.01
G-protein coupled receptor 78 (GPR78, Homo sapiens, UniProt Q96P69): 0.89

Sample 4
SMILES: CN(C)C(=O)Cn1cc(-c2nc(C3(c4ccc(-c5cnc(N)nc5)cc4)CC3)no2)cn1
Technique: competition with immobilised ligand
Tested at: 1 µM
Quantity: remaining binding
Tyrosine-protein kinase ABL1, phosphorylated (ABL1, Homo sapiens, UniProt P00519, H396P); cell-free assay: 100%
Serine/threonine-protein kinase PLK4 (PLK4, Homo sapiens, UniProt O00444); cell-free assay: 100%
Calcium/calmodulin-dependent protein kinase type 1G (CAMK1G, Homo sapiens, UniProt Q96NX5); cell-free assay: 100%
Homeodomain-interacting protein kinase 4 (HIPK4, Homo sapiens, UniProt Q8NE63); cell-free assay: 100%
Casein kinase I isoform gamma-3 (CSNK1G3, Homo sapiens, UniProt Q9Y6M4); cell-free assay: 100%
Ephrin type-A receptor 4 (EPHA4, Homo sapiens, UniProt P54764); cell-free assay: 100%
Mast/stem cell growth factor receptor Kit (KIT, Homo sapiens, UniProt P10721, V559D); cell-free assay: 100%
Phosphatidylinositol 4,5-bisphosphate 3-kinase catalytic subunit alpha isoform (PIK3CA, Homo sapiens, UniProt P42336, M1043I); cell-free assay: 100%
Serine/threonine-protein kinase tousled-like 2 (TLK2, Homo sapiens, UniProt Q86UE8); cell-free assay: 100%
eIF-2-alpha kinase GCN2, C-terminal kinase domain (EIF2AK4, Homo sapiens, UniProt Q9P2K8, S808G); cell-free assay: 83%
NT-3 growth factor receptor (NTRK3, Homo sapiens, UniProt Q16288); cell-free assay: 97%
Phosphatidylinositol 4,5-bisphosphate 3-kinase catalytic subunit alpha isoform (PIK3CA, Homo sapiens, UniProt P42336, I800L); cell-free assay: 91%
Serine/threonine-protein kinase ULK2 (ULK2, Homo sapiens, UniProt Q8IYT8); cell-free assay: 78%
STE20-like serine/threonine-protein kinase (SLK, Homo sapiens, UniProt Q9H2G2); cell-free assay: 77%
Inhibitor of nuclear factor kappa-B kinase subunit beta (IKBKB, Homo sapiens, UniProt O14920); cell-free assay: 90%
Platelet-derived growth factor receptor alpha (PDGFRA, Homo sapiens, UniProt P16234); cell-free assay: 83%
Receptor-type tyrosine-protein kinase FLT3 (FLT3, Homo sapiens, UniProt P36888, F691L/ITD); cell-free assay: 85%
Calcium/calmodulin-dependent protein kinase type II subunit gamma (CAMK2G, Homo sapiens, UniProt Q13555); cell-free assay: 98%
Protein kinase C iota type (PRKCI, Homo sapiens, UniProt P41743); cell-free assay: 100%
Tyrosine-protein kinase ABL1, non-phosphorylated (ABL1, Homo sapiens, UniProt P00519, F317I); binding: 76%
